Results collected from several papers.
Numbered parts are unrelated; each lists some results of a single study. Positions count from the first letter of the parent shown.

Series 1
Target: Myc proto-oncogene protein, bHLH-zipper, MAX partner unstated (MYC, Homo sapiens, UniProt P01106, residues 368-449)
Sequence of UniProt P01106 (368-449, looked up): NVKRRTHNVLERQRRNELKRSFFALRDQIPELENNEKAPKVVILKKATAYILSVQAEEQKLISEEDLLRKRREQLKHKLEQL
Technique: protein-binding microarray
Form: double-stranded DNA, one strand shown
Sample: in vitro
Concentration: not given
Notes: k-mer, scored over probes, only values ≥0.25
Reading: higher = stronger binding
Endpoint: E-score
Oligonucleotide = CGTGCAAA; value = 0.285
Oligonucleotide = ATTGCGTG; value = 0.263
Oligonucleotide = CCGCGTGA; value = 0.423
Oligonucleotide = ATGGGGCG; value = 0.32
Oligonucleotide = AATGTGGC; value = 0.293
Oligonucleotide = CACACCTC; value = 0.325
Oligonucleotide = ACGGGGTG; value = 0.293
Oligonucleotide = GGCGTGCA; value = 0.348

Series 2
Target: POU domain, class 5, transcription factor 1, POU domain (Pou5f1, Mus musculus, UniProt P20263, residues 131-289)
Sequence of UniProt P20263 (131-289, looked up): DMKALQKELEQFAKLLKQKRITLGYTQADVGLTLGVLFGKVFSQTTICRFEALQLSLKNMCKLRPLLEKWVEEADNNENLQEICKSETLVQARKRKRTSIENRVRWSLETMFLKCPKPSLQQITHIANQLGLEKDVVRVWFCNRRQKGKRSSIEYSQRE
Technique: Spec-seq
Form: double-stranded DNA, one strand shown
Sample: in vitro
Concentration: not given
Notes: whole probe, mean of replicates
Baseline: not given
Reading: lower = stronger binding
Endpoint: relative binding energy
Shared flanks, not repeated: GAGTCGTCTCGTCAGCAC … CCGTAGAGCACTCAGGTC
Oligonucleotide = TTATTAAT; value = -0.288 ln ratio
Oligonucleotide = ATCGCGAT; value = 0.735 ln ratio
Oligonucleotide = ATCTTAAT; value = 0.147 ln ratio
Oligonucleotide = ATGCCATT; value = 0.376 ln ratio
Oligonucleotide = ATCTGGAT; value = 0.58 ln ratio
Oligonucleotide = ATGCACGA; value = -0.0223 ln ratio
Oligonucleotide = ATCGCTAT; value = 0.657 ln ratio
Oligonucleotide = ATGCAGTC; value = 0.367 ln ratio

Series 3
Target: Prothrombin, mature alpha-thrombin (F2, Homo sapiens, UniProt P00734)
Technique: aptamer microarray, sandwich
Form: DNA with 2'F-ANA
Sample: in vitro
Concentration: 200 nM
Notes: whole 15-mer aptamer, many near background
With: Cy3 exosite-II aptamer, 400 nM
Reading: higher = stronger binding
Endpoint: mean fluorescence intensity
Oligonucleotide: GGTTGGTGTGGTTGG
Modification = 2'F-ANA at 3 6 7 9 10 13 15; value = 478 a.u.
Modification = 2'F-ANA at 2 4 5 14; value = 45.9 a.u.
Modification = 2'F-ANA at 1 4 5 8 10 11 12 13 15; value = 51.9 a.u.
Modification = 2'F-ANA at 1 2 5 6 8 11 12 13 14 15; value = 50.4 a.u.
Modification = 2'F-ANA at 1 2 3 5 6 8 9 10 11 12 13 15; value = 61.6 a.u.
Modification = 2'F-ANA at 2 4 5 6 8 11 13 14; value = 44.8 a.u.
Modification = 2'F-ANA at 1 2 3 8 9 11 12 13 15; value = 357 a.u.
Modification = 2'F-ANA at 1 2 8 9 10 11 13 15; value = 54.4 a.u.

Other studies, line by line
Starting sequence: viral docking peptide; CKVKRKLFGSENI
Substitution = K4A; target = CCNA2, cyclin fold, Cln2 fusion (human); test = yeast growth competition, sequencing; test system = yeast; conditions = strong parent motif; how to read = baseline: not given, higher = stronger binding; endpoint = normalised enrichment score; value = 5.27

For quick reference, copied from above (series 1):
Oligonucleotide = ATGGGGCG; value = 0.32
Oligonucleotide = AATGTGGC; value = 0.293
